Assay results pooled from the literature.
Lines come from different studies, so protocols differ. ± gives the spread as reported. Values after ≈ are worked out from the molar mass of the structure shown.
UniProt P06276, sequence (whole entry, looked up): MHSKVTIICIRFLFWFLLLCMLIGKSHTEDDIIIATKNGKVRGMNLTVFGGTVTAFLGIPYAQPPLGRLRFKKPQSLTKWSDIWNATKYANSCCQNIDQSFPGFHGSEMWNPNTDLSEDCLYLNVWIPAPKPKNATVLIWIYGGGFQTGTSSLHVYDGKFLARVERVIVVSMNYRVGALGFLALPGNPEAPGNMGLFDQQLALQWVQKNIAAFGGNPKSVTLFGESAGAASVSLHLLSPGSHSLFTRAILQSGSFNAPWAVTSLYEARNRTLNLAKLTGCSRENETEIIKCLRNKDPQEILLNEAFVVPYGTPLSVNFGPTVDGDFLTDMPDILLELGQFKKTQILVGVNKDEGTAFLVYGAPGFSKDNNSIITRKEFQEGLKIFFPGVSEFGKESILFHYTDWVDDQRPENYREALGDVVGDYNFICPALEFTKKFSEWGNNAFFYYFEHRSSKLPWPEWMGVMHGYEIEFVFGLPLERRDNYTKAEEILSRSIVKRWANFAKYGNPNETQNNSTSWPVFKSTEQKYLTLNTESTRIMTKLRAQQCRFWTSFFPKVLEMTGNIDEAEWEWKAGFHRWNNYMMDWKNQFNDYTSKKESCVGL
UniProt O15354, sequence (whole entry, looked up): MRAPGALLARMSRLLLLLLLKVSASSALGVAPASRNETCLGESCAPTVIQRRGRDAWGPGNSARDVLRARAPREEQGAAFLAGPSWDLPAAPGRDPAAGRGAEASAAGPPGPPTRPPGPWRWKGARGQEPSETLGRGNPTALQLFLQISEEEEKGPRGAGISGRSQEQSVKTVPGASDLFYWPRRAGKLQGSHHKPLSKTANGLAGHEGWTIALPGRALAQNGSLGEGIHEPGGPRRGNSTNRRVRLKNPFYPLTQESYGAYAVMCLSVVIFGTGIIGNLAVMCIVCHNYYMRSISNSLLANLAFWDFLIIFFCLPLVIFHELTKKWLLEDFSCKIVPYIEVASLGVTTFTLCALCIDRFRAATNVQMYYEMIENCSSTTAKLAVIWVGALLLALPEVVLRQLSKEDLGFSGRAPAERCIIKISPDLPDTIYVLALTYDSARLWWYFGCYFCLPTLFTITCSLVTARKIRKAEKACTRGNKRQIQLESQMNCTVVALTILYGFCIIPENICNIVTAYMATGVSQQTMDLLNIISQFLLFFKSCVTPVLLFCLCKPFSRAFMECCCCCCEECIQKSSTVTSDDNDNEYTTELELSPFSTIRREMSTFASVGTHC

COc1ccc2c(c1)[C@]13CCCC[C@@H]1[C@H](C2)N(C)CC3 — subjects with serious TEAE (human; oral, dose not given): 0%
Cc1ncc2n1-c1ccc(Cl)cc1C(c1ccccc1F)=NC2 — fu plasma over fu microsomes (human, human liver microsomes 0.5 mg/mL; 5 µM, 24 h, pH 7.4): 0.053
COC(=O)[C@@H]1[C@H]2C[C@H]3c4[nH]c5ccccc5c4CCN3C[C@@H]2CC[C@@H]1O — IC50 (Plasmodium falciparum; HB3): 3.98 µM
O=C(C1CCCCC1)N1CCN(S(=O)(=O)c2cccc3cnccc23)CC1 — CLint (Swiss CD1 mouse liver microsomes; 5 µM, together with: NADPH): > 1000 µL/min/mg
N#Cc1c(Oc2cccc(OS(=O)(=O)CCCC(F)(F)F)c2)cccc1C(F)(F)F — tissue/plasma ratio (mouse; oral, 5 mg/kg; relative to: brain Cmax over plasma Cmax): ~2.1
CC(C)[C@@H]1NC(=O)[C@H](Cc2ccccc2)NC(=O)[C@@H]2NC(=O)[C@H](Cc3ccccc3)NC(=O)[C@@H]3CCCN3C(=O)CNC(=O)[C@H](Cc3ccccc3)NC(=O)[C@@H]3CNCCCC[C@@H](C(=O)O)NC(=O)[C@@H]4NC(=O)[C@H](CC(N)=O)NC(=O)CNC(=O)[C@H]([C@@H](O)C(=O)O)NC(=O)[C@H](CSC[C@@H](NC(=O)[C@H](CCC(N)=O)NC(=O)[C@H](CCCCNC(=O)c5ccc(NN)nc5)NC(=O)[C@@H](N)CS[C@H]4C)C(=O)N[C@@H](CS[C@H]2C)C(=O)N3)NC1=O [technetium-99m labelled] — fractional retention (rat 45 min ischemia, 2 h reperfusion, myocardial hot-spot; 2 h; relative to: 2 min post-injection): 356 ± 52.4%
Cc1ncc2n1-c1ccc(Cl)cc1C(c1ccccc1F)=NC2 — contact dermatitis events (healthy humans; oral, dose not given): 0%
CCCCCn1cc(C(=O)Nc2cccc3ccccc23)c2ccccc21 — hepatic clearance (male human liver microsomes; 1 µM): 18.9 mL/min/kg
CCN(CC)C(=O)[C@@H]1C=C2c3cccc4[nH]cc(c34)C[C@H]2N(C)C1 — List of Complaints score (refers to: impaired concentration; healthy volunteers; dose not given, 0 to 12 h; relative to: placebo, direction not given): 9
O=C1c2c(O)c(=O)ccn2N([C@@H]2c3ccccc3SCc3c2ccc(F)c3F)[C@@H]2COCCN12 — plasma concentration (BALB/c mice, plasma; oral, 0.5 mg/kg baloxavir marboxil, 10 h): 0.299 ng/mL
CCCCCn1nc(C(=O)Nc2cccc3ccccc23)c2ccccc21 — apparent clearance (CL/F) (rat, plasma; intraperitoneal, 3 mg/kg, mean of 4): 192 mL/min/kg
CCCCOc1nc(N)c2c(n1)N(Cc1cccc(CN3CCCC3)c1)CC(=O)N2 — headache incidence (human; oral, 2 mg, grade 1): 13.3%
Cc1ncc2n1-c1ccc(Cl)cc1C(c1ccccc1F)=NC2 — subjects with TEAE (human; oral, dose not given): 17.9%
CC(=O)c1ccc(/N=N/c2ccc(C[P+](c3ccccc3)(c3ccccc3)c3ccccc3)cc2)cc1 — IC50 (Gag-Pol polyprotein, integrase (gag-pol, Human immunodeficiency virus 1, UniProt P12497); 3'-processing activity, inhibitor; wild-type integrase): > 100 µM
C[C@]12CC[C@H]3[C@@H](CCC4=CC(=O)CC[C@@]43C)[C@@H]1CC[C@@H]2O — hepatic clearance (mouse liver microsomes; 1 µM): 85.9 mL/min/kg
C[C@@H](c1ncncc1F)[C@](O)(Cn1cncn1)c1ccc(F)cc1F — TEAE leading to discontinuation (human; oral, 400 mg): 0%
OCc1ncc2n1-c1ccc(Cl)cc1C(c1ccccc1F)=NC2 — Cmax (human, plasma; oral, 7.5 mg of midazolam, day 26, geometric mean, no amenamevir): 14.2 ng/mL
CC(C)N(CCc1c[nH]c2cccc(O)c12)C(C)C — half-life (male cynomolgus monkey, plasma; subcutaneous, 0.5 mg/kg): 0.95 h
Cc1ncc2n1-c1ccc(Cl)cc1C(c1ccccc1F)=NC2 — AUC(0-inf) (healthy volunteers, plasma; oral, 5 mg single dose, day 1, given alone): 101 ng·h/mL
C[C@]12CC[C@H]3[C@@H](CCC4=CC(=O)CC[C@@]43C)[C@@H]1CC[C@@H]2O — permeability (Pe) (lipid PAMPA; PBS; 10 µM, 16 h, pH 7.4, 25 °C): 26.9 ×10⁻⁶ cm/s
CN1CCC(=C2c3ccccc3CC(=O)c3sccc32)CC1 — IC50 (Plasmodium falciparum; D10): 3.98 µM
C#Cc1ccc2c(c1)C(c1ccccn1)=NCc1c(-c3cnco3)ncn1-2 — solubility (dichloromethane; 24 h, 25 °C, thermodynamic equilibrium): 4660 µg/mL (≈ 13.3 mM)
CC[C@H](C)[C@H](N)C(=O)N[C@@H](CC(C)C)C(=O)NCC(=O)N[C@H](C(=O)N[C@H](C(=O)N[C@@H](CC(C)C)C(=O)NCC(=O)N[C@@H](CC(C)C)C(=O)N[C@@H](CC(C)C)C(=O)N[C@@H](CCCCN)C(=O)NCC(=O)N[C@@H](CC(C)C)C(N)=O)[C@@H](C)CC)[C@@H](C)O — minimal haemolytic concentration (mouse red blood cells): 10 µM
COC[C@@H](NC(C)=O)C(=O)NCc1ccccc1 — MRT(0-inf) (fluorescence quenching; human healthy male, plasma; oral, 100 mg single): 17.5 h
CCCCCCCCCCC(=O)O[C@H]1CC[C@H]2[C@@H]3CCC4=CC(=O)CC[C@]4(C)[C@H]3CC[C@]12C — testosterone level (human male serum; 500 ng/mL, NaF 50.0 mg/mL, baseline testosterone 544 ng/dL): 542 ng/dL
CCCCCCC#Cc1cncc(-c2nnc(SCc3cc([N+](=O)[O-])cc([N+](=O)[O-])c3)n2C)c1 — CLint (mouse liver microsomes): 287 µL/min/mg
Oc1ccc2c3c1O[C@H]1[C@@H](O)CC[C@@]4(O)[C@@H](C2)N(CC2CCC2)CC[C@]314 — log2 fold change (GPR37 (Homo sapiens, UniProt O15354); β-arrestin recruitment, TANGO luminescence; concentration not given; relative to: basal luminescence): 0.536
Nc1c2c(nc3ccccc13)CCCC2O (centres unmarked) — IC50 (Cholinesterase (BCHE, Homo sapiens, UniProt P06276); inhibitor; with Triton): 1.22 ± 0.14 µM
C=C(C)[C@@H]1CCC(C)=C[C@H]1c1c(O)cc(CCCCC)cc1O — subjects with Nasopharyngitis (human; 750 mg, trial 17075, together with: fluconazole 400 mg): 0%

Some of these lines once more:
COC[C@@H](NC(C)=O)C(=O)NCc1ccccc1 — MRT(0-inf) (fluorescence quenching; human healthy male, plasma; oral, 100 mg single): 17.5 h
COc1ccc2c(c1)[C@]13CCCC[C@@H]1[C@H](C2)N(C)CC3 — subjects with serious TEAE (human; oral, dose not given): 0%
CC(=O)c1ccc(/N=N/c2ccc(C[P+](c3ccccc3)(c3ccccc3)c3ccccc3)cc2)cc1 — IC50 (Gag-Pol polyprotein, integrase (gag-pol, Human immunodeficiency virus 1, UniProt P12497); 3'-processing activity, inhibitor; wild-type integrase): > 100 µM
C[C@]12CC[C@H]3[C@@H](CCC4=CC(=O)CC[C@@]43C)[C@@H]1CC[C@@H]2O — permeability (Pe) (lipid PAMPA; PBS; 10 µM, 16 h, pH 7.4, 25 °C): 26.9 ×10⁻⁶ cm/s
N#Cc1c(Oc2cccc(OS(=O)(=O)CCCC(F)(F)F)c2)cccc1C(F)(F)F — tissue/plasma ratio (mouse; oral, 5 mg/kg; relative to: brain Cmax over plasma Cmax): ~2.1
